Published values collected from several papers.
Lines come from different studies, so protocols differ. ± marks the error that the study gave.
RAD52: DNA repair protein RAD52 homolog (RAD52, Homo sapiens, UniProt P43351)
UniProt P43351, sequence (whole entry, looked up): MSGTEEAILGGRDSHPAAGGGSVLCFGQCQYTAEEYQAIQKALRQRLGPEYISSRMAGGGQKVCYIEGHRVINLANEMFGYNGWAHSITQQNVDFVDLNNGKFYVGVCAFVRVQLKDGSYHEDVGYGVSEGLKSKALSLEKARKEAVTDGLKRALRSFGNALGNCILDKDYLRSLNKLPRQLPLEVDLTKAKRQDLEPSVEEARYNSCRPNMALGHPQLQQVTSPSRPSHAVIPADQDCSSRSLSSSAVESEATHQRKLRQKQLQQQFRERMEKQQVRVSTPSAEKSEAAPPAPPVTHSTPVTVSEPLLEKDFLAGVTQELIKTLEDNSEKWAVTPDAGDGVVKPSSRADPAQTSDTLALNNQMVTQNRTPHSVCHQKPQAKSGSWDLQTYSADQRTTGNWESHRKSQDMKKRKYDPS
Ugcg: Ceramide glucosyltransferase (Ugcg, Mus musculus, UniProt O88693)
UniProt O88693, sequence (whole entry, looked up): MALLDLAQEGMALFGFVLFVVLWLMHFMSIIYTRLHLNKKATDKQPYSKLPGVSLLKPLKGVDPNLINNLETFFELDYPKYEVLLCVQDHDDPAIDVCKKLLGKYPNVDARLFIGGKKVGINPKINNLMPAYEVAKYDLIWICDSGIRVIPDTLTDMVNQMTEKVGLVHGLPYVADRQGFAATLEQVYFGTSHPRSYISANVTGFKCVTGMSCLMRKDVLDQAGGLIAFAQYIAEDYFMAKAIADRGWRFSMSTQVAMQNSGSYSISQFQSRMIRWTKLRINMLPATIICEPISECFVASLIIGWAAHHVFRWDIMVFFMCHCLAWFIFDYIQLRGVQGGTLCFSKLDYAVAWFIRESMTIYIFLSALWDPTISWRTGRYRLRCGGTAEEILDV
DRD3: D(3) dopamine receptor (DRD3, Homo sapiens, UniProt P35462)
UniProt P35462, sequence (whole entry, looked up): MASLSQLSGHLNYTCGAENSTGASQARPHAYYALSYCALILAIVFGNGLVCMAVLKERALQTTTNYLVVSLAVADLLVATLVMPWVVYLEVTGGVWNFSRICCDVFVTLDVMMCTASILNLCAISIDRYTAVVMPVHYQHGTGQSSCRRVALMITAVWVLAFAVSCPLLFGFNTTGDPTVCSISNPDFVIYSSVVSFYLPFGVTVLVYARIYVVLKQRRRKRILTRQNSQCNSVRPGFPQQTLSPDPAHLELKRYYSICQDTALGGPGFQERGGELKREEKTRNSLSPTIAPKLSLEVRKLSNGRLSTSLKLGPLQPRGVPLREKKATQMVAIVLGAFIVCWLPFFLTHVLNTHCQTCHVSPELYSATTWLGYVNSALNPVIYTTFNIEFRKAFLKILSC
UniProt O96017, sequence (whole entry, looked up): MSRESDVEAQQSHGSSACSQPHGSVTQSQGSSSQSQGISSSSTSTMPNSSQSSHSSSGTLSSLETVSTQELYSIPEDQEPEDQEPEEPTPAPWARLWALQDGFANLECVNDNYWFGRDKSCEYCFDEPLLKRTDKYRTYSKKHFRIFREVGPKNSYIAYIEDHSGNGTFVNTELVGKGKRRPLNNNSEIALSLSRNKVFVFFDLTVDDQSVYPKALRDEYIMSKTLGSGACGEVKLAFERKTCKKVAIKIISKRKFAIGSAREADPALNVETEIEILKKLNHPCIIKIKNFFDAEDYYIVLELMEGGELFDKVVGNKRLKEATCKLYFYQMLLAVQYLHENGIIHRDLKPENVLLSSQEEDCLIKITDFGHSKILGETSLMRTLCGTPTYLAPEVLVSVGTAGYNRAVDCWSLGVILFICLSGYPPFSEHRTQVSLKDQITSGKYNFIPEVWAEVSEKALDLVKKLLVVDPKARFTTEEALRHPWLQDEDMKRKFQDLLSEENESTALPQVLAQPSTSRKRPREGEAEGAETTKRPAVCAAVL
UniProt Q9UQM7, sequence (whole entry, looked up): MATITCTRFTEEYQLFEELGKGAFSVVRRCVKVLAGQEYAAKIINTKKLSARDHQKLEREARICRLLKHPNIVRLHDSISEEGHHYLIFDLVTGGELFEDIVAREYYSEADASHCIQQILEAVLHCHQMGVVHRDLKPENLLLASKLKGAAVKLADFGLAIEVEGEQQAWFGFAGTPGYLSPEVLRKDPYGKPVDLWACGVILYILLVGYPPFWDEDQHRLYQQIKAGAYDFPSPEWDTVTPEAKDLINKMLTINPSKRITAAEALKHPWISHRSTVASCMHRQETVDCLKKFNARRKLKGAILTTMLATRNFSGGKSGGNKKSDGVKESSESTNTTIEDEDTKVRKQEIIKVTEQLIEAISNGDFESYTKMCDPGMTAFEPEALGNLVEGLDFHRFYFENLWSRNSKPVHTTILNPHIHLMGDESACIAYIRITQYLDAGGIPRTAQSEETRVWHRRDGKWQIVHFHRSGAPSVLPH
UniProt P35346, sequence (whole entry, unmodified, looked up): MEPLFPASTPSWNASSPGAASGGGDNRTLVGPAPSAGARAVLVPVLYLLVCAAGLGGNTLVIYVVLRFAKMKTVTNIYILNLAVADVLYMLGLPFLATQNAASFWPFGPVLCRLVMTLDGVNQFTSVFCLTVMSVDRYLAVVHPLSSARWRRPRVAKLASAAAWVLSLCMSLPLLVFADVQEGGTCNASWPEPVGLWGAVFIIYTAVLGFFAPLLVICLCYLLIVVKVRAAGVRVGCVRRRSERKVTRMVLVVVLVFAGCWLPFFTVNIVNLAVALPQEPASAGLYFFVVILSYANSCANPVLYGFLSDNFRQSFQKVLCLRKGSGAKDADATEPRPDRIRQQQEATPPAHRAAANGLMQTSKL
UniProt Q9Y6M4, sequence (whole entry, looked up): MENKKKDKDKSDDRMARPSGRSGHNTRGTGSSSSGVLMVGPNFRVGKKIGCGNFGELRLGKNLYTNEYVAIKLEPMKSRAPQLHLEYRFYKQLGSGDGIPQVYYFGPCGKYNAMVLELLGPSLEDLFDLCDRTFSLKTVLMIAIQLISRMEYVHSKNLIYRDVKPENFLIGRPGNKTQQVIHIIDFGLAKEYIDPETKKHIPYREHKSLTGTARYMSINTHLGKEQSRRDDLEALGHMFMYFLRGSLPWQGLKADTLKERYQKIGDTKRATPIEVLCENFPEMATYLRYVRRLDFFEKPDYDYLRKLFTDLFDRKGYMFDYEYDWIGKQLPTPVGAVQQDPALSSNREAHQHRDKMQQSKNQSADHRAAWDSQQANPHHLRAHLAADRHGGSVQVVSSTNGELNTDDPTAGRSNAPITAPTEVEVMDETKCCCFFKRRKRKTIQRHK
UniProt P47712, sequence (whole entry, looked up): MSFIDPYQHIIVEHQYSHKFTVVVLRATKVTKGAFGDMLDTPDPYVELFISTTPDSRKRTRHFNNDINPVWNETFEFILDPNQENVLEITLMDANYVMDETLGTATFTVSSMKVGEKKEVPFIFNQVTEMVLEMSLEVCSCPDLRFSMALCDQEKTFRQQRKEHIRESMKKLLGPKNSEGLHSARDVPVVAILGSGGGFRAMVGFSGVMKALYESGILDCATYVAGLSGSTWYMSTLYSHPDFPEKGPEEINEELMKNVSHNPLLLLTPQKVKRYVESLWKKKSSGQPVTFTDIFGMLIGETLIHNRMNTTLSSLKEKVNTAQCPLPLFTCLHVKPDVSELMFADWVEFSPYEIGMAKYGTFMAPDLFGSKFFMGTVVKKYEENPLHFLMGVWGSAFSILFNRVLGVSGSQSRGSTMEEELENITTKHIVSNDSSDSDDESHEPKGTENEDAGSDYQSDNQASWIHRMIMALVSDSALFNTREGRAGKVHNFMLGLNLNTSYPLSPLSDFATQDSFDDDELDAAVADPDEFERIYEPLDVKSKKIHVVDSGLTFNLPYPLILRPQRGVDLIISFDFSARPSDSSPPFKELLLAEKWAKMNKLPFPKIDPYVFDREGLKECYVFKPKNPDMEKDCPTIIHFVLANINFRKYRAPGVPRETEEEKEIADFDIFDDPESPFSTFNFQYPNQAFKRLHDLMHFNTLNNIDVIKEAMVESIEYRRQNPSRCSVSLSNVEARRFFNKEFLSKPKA
UniProt P30837, sequence (whole entry, looked up): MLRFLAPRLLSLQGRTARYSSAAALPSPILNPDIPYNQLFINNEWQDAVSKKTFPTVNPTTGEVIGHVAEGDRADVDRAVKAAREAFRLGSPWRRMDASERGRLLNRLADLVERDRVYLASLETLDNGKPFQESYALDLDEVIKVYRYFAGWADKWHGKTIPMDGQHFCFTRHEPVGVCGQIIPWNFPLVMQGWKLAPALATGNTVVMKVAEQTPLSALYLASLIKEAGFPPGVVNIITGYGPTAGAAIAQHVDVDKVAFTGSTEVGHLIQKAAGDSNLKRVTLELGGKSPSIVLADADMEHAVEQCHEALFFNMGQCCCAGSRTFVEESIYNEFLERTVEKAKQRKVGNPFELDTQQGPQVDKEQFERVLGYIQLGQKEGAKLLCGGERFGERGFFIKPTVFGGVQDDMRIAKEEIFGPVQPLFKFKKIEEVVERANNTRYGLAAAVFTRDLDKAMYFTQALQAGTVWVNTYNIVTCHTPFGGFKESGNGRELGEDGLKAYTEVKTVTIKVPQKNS
UniProt P07550, sequence (whole entry, unmodified, looked up): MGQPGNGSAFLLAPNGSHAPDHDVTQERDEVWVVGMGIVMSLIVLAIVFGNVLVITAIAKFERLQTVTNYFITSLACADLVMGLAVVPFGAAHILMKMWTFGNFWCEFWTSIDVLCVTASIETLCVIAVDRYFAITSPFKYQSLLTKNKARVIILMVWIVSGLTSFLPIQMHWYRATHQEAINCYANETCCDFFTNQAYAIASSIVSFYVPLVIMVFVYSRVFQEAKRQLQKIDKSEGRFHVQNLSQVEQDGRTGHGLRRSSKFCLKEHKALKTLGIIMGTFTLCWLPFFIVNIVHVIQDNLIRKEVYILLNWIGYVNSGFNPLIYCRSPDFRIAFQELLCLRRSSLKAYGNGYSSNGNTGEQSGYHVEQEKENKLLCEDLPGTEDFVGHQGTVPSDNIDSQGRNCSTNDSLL
UniProt O95319, sequence (40-212, looked up): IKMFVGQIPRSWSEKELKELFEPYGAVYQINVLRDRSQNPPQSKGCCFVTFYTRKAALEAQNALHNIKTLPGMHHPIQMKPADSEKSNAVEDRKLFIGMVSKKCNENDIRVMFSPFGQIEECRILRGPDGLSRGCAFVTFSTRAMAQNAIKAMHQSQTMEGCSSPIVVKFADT

Structure (SMILES) | target | test | system | setting | IC50
Cc1ccc(-c2nc(C(=O)NCCCN3CCOCC3)cc3c2[nH]c2ccccc23)cc1 | RAD52 | D-loop formation |  | with: RAD52 450 nM | 4.3 ± 0.35 µM
COc1ccc(OCc2ccc([N+](=O)[O-])cc2)cc1-c1c[nH]c2ncc(-c3cncc(C(=O)N(C)C)c3)cc12 | ABL1 (Homo sapiens, UniProt P00519) | kinase activity, inhibitor, HTRF |  | 1 h preincubation, with: ATP 20 µM | 0.0789 ± 0.0222 µM
Cc1nn(-c2cccc(N)c2)c(=O)c2cnc(Nc3ccc(N4CCNCC4)cc3)nc12 | PRKD3 (Homo sapiens, UniProt O94806) | enzyme activity, inhibitor |  |  | > 10 µM
CCn1nc(Cl)c2c1-c1cnc(N)c(c1)O[C@H](C)c1cc(F)ccc1-c1nn(C)cc1C2 | ALK (Homo sapiens, UniProt Q9UM73, L1198F) | enzyme activity, inhibitor |  | with: 1 mM ATP | 0.00091 µM
Sc1ncnc2nc[nH]c12 | CUGBP Elav-like family member 2, residues 40-212 (Homo sapiens, UniProt O95319) | protein-RNA binding, inhibitor, fluorescence polarization |  | 200 nM protein, with: 10 nM RNA | 29.5 ± 5.87 µM
OC[C@@H]1[C@@H](O)[C@H](O)[C@@H](O)CN1CCCCCOCc1ccc(-c2ccc3c(c2)OCO3)cc1 | Ugcg | enzyme activity, inhibitor, fluorescence |  |  | 0.025 µM
O=C(COC(=O)c1cccc(-c2nnco2)c1)NC(c1ccccc1)c1ccc(Cl)cc1 (stereo not shown) | PLA2G4A (Homo sapiens, UniProt P47712) | enzyme activity, inhibitor, fluorescence |  |  | 8.3 µM
CCCCOc1ccc(CC(=O)NO)cc1 | ALDH1B1 (Homo sapiens, UniProt P30837) | enzyme activity, inhibitor |  |  | 0.36 µM
Nc1ncc(-c2cc(-c3cnn(CC(F)(F)F)c3)ncc2F)nc1C(=O)NC1CNCC(F)C1 (stereo not shown) | CHEK2 (Homo sapiens, UniProt O96017) | enzyme activity, inhibitor, radiometric |  |  | 0.00906 µM
Fc1ccc(Nc2nc(NC3CCCCC3)c3cc(C(F)(F)F)ccc3n2)cc1F | ADRB2 (Homo sapiens, UniProt P07550, G162A) | β-arrestin2 recruitment, antagonist, BRET | HEK293 | mutant G162A, with: isoprenaline 1 µM | 0.158 µM
COCC1CN(C2CCN(c3cc(OC)c(Nc4ncc(Br)c(Nc5ccc6c(c5P(C)(C)=O)OCCO6)n4)cc3C)CC2)C1 | EGFR (Homo sapiens, UniProt P00533, L858R) | enzyme activity, inhibitor, TR-FRET |  |  | 0.00335 µM
Cc1cc(C)nc(NC(=S)N2CCN(c3ccncc3)CC2)c1 | GPD1 (Homo sapiens, UniProt P21695) | enzyme activity, inhibitor |  |  | > 100 µM
COc1cc(N2CCOCC2)ccc1Nc1ncc(Cl)c(Nc2ccccc2NS(C)(=O)=O)n1 | EGFR (Homo sapiens, UniProt P00533, C797S/del746-750/T790M) | kinase activity, inhibitor |  |  | 0.00166 µM
CCCCCCCN1C[C@H](O)[C@@H](O)[C@H](O)[C@H]1CO | Ugcg | enzyme activity, inhibitor, fluorescence |  |  | 20 µM
CSCC[C@H](N)C(=O)N[C@@H](CC(=O)O)C(=O)N[C@@H](CC(C)C)C(=O)N1CCC[C@H]1C(=O)N[C@@H](Cc1ccccc1)C(=O)N[C@H](CCC(=O)O)C(=O)N[C@@H](Cc1ccccc1)C(N)=O | Transcriptional regulator PlcR (Bacillus thuringiensis, UniProt A0ACM8Q0N2) | reporter gene, inhibitor, lacZ reporter | 407 Cry− |  | 0.213 ± 0.02 µM
Cc1n[nH]c(C)c1CCCOc1cc(C(=O)NCCCCC(NC(=O)CN2CCN(CC(=O)O)CCN(CC(=O)O)CCN(CC(=O)O)CC2)C(=O)NCC2CCC(C(=O)NC(Cc3ccc4ccccc4c3)C(=O)NCCCCC(NC(=O)NC(CCC(=O)O)C(=O)O)C(=O)O)CC2)ccc1F (stereo not shown) | FOLH1 (Homo sapiens, UniProt Q04609) | competitive binding | 22Rv1 | with: [68Ga]PSMA-617 | 0.00342 µM
COc1cc(OC(=O)c2ccc([N+](=O)[O-])cc2)ccc1OC(=O)c1ccc([N+](=O)[O-])cc1 | Apelin receptor (APLNR, Homo sapiens, UniProt P35414) | β-arrestin recruitment, antagonist |  |  | > 100 µM
OC[C@H]1[C@@H](O)[C@H](O)[C@@H](O)CN1CCCCOCCC12CC3CC(CC(C3)C1)C2 | Ugcg | enzyme activity, inhibitor, fluorescence |  |  | 1.34 µM
CCCN(CCC)CCCNC(=S)Nc1ccc2nc(N3CCN(C)CC3)cc(C)c2c1 | RAD52 | ssDNA annealing, fluorescence quenching |  |  | 6 µM
CCOc1cc(CN2CC3(CC(N4CCC(C(=O)O)CC4)=NO3)C2)cc(OCC)c1-c1ccc(F)cc1 | SSTR5 (Homo sapiens, UniProt P35346, N100T/Q99S) | cAMP level, agonist, GloSensor | AD293 | Q99S/N100T mutant, with: CST17 EC80 and forskolin | 2.14 µM

Structure (SMILES) | target | test | system | setting | IC50
CC(C)(C)CCOCCCCCN1C[C@H](O)[C@@H](O)[C@H](O)[C@H]1CO | Ugcg | enzyme activity, inhibitor | RAW264.7 | in situ, with: C6-NBD-ceramide | 0.76 µM
CC(C)(C)OC(=O)N1CCN(c2ccc3c(O)c(C(=O)NCc4ccc(C#N)nc4)ncc3n2)CC1 | Prolyl hydroxylase EGLN3, PHD (EGLN3, Homo sapiens, UniProt Q9H6Z9) | enzyme activity, inhibitor |  |  | 0.0107 µM
Cc1c(C(=O)Nc2ccc(S(=O)(=O)N(C)C3CCN(C)CC3)cc2)oc2c(Cl)cccc12 | RAD52 | ssDNA annealing, fluorescence quenching |  |  | 9.8 µM
Cc1cc(NC2CCN(C)CC2)ccc1-c1cc2c(N3CCC[C@H](C(=O)NCc4ccc(OC(F)(F)F)cc4)C3)ncnc2[nH]1 | CAMK2A (Homo sapiens, UniProt Q9UQM7) | enzyme activity, inhibitor, mobility shift |  |  | 5.31 µM
OC[C@H]1[C@@H](O)[C@H](O)[C@@H](O)CN1CCCCCOCc1ccccc1-c1ccccc1 | Ugcg | enzyme activity, inhibitor, fluorescence |  |  | 0.025 µM
CC(=O)c1cnc(N)nc1N1CC[C@H]1c1nn2ccc(Cl)c2c(=O)n1-c1ccccc1 | PI3-kinase catalytic subunit delta (Rattus norvegicus, UniProt A0A8I5Y949) | binding, KiNativ | intact rat white blood cells |  | 0.0384 µM
CCCCCCN1C[C@H](O)[C@@H](O)[C@H](O)[C@@H]1CO | Ugcg | enzyme activity, inhibitor, fluorescence |  |  | 40 µM
C=CC(=O)Nc1cc(Nc2ncnc(Nc3ccccc3C(C)(C)O)n2)c(OC)cc1N(C)CCN(C)C | EGFR (Homo sapiens, UniProt P00533, L858R/T790M) | enzyme activity, inhibitor |  |  | 0.00032 µM
COc1ccc(Nc2cc(NC3CC3)n3ncc(C#N)c3n2)cc1 | DAPK3 (Homo sapiens, UniProt O43293) | inhibitor |  |  | > 10 µM
OC[C@@H]1[C@@H](O)[C@H](O)[C@@H](O)CN1CCCCCOCc1ccc(-c2ccccc2)c(F)c1 | Ugcg | enzyme activity, inhibitor, fluorescence |  |  | 0.025 µM
CCN(CC)CC(=O)Nc1cccc(-n2cc(-c3ccc4ccc(-c5cn(-c6cccc(NC(=O)CN(CC)CC)c6)nn5)cc4c3)nn2)c1 | CSNK1G3 (Homo sapiens, UniProt Q9Y6M4) | enzyme activity, inhibitor |  |  | > 10 µM
C=CC(=O)Nc1cc(Nc2nccc(Nc3cc(Cl)c(F)cc3C(C)(C)O)n2)c(OC)cc1N1CC[C@H](N(C)C)C1 | EGFR (Homo sapiens, UniProt P00533) | EGFR phosphorylation, inhibitor | A-431 |  | 0.362 µM
OC[C@@H]1[C@@H](O)[C@H](O)[C@@H](O)CN1CCCCCOCc1ccccc1 | Ugcg | enzyme activity, inhibitor, fluorescence |  |  | 0.75 µM
COc1cc(O)cc(CCc2ccc(OC)c(O)c2CC=C(C)C)c1 | Si (Rattus norvegicus, UniProt P23739) | enzyme activity, inhibitor, absorbance |  |  | 970 µM
Cc1ccc(NS(=O)(=O)c2c(C(=O)N3CCCC3)c(C)n(C)c2C)cc1Cl | DRD3 | β-arrestin recruitment, antagonist, PathHunter |  | with: dopamine EC80 | > 100 µM
CCCCc1nc2c([nH]1)[C@H](O)[C@@H](O)[C@H](O)[C@H]2O | GAA (Homo sapiens, UniProt P10253) |  |  | pH 4.8 | > 100 µM
Cc1cccc(NS(=O)(=O)c2c(C)[nH]c(C)c2C(=O)N2CCCC2)c1 | DRD3 | Go activation, antagonist, BRET |  | with: dopamine | > 100 µM
CNCc1ccc2c(c1)N(C(=O)OCc1ccccc1)[C@H](CNC(=N)N)[C@H]2NC(=O)C(=O)Nc1ccc(Cl)c(F)c1 | env (Human immunodeficiency virus 1, UniProt Q2N0S5) | HIV-1 infection | Cf2Th-CD4/CCR5 cells | 48 h | 28.3 µM
Cc1[nH]c(C)c(S(=O)(=O)Nc2ccc(F)cc2)c1C(=O)N1CCCC1 | DRD3 | β-arrestin recruitment, antagonist, PathHunter |  | with: dopamine EC80 | > 100 µM
Cn1nc(-c2ccc(Cl)cc2)c2cc(C(=O)NCCCN3CCCC3)sc21 | RAD52 | ssDNA annealing, fluorescence quenching |  |  | 3.5 µM

For quick reference, copied from above:
Structure (SMILES) | target | test | system | setting | IC50
Cc1ccc(-c2nc(C(=O)NCCCN3CCOCC3)cc3c2[nH]c2ccccc23)cc1 | RAD52 | D-loop formation |  | with: RAD52 450 nM | 4.3 ± 0.35 µM
COc1ccc(OCc2ccc([N+](=O)[O-])cc2)cc1-c1c[nH]c2ncc(-c3cncc(C(=O)N(C)C)c3)cc12 | ABL1 (Homo sapiens, UniProt P00519) | kinase activity, inhibitor, HTRF |  | 1 h preincubation, with: ATP 20 µM | 0.0789 ± 0.0222 µM
Cc1nn(-c2cccc(N)c2)c(=O)c2cnc(Nc3ccc(N4CCNCC4)cc3)nc12 | PRKD3 (Homo sapiens, UniProt O94806) | enzyme activity, inhibitor |  |  | > 10 µM
CCn1nc(Cl)c2c1-c1cnc(N)c(c1)O[C@H](C)c1cc(F)ccc1-c1nn(C)cc1C2 | ALK (Homo sapiens, UniProt Q9UM73, L1198F) | enzyme activity, inhibitor |  | with: 1 mM ATP | 0.00091 µM
Sc1ncnc2nc[nH]c12 | CUGBP Elav-like family member 2, residues 40-212 (Homo sapiens, UniProt O95319) | protein-RNA binding, inhibitor, fluorescence polarization |  | 200 nM protein, with: 10 nM RNA | 29.5 ± 5.87 µM
